{"data": "Results of several laboratories", "note": "Each numbered part is a random draw from the data of one study; scales do not carry over between parts. Values joined by “and” are separate records of one study, mostly repeats; a detail may differ.", "chain of UniProt Q2M2I8 (whole entry, looked up)": "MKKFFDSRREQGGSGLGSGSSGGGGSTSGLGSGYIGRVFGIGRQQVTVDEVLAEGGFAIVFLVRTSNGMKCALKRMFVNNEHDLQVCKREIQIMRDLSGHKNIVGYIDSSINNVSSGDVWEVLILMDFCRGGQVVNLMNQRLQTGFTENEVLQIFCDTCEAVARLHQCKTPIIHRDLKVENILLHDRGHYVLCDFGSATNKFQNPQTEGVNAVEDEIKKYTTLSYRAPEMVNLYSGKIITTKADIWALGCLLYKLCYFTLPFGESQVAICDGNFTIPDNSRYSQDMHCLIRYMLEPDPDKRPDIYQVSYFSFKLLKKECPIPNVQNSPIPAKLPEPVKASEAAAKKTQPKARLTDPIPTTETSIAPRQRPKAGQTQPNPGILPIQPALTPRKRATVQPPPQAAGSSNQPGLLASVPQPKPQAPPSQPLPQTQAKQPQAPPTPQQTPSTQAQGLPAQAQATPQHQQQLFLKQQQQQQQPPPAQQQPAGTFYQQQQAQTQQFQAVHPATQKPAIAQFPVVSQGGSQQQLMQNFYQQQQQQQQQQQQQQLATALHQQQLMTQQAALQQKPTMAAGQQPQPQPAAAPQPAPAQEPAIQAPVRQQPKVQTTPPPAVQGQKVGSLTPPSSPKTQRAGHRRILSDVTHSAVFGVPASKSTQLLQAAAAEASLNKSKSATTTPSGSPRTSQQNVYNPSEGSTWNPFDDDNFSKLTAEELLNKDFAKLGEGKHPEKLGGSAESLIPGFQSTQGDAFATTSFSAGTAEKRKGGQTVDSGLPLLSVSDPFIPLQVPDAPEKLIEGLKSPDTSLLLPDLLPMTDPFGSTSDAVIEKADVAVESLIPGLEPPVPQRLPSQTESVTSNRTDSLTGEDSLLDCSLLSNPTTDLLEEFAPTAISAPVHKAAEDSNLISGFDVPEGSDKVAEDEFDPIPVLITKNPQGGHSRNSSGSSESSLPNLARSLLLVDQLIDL", "chain of UniProt Q5BJF2 (whole entry, looked up)": "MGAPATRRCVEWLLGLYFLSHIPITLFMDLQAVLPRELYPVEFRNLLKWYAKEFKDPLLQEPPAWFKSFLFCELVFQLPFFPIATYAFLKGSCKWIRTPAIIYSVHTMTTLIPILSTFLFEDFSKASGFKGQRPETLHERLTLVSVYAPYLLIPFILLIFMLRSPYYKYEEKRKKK"}
{"data": "Study 1", "Compound": "CCOc1ccc(Nc2c3c(nc4ccccc24)CCC3)cc1", "organism": "Leishmania donovani", "method": "cidal or static mode", "strain": "DD8", "sample": "promastigotes", "tested at": "concentration not given"}
{"time": "24 h", "promastigote count": "1.26e+06 and 1.27e+06"}
{"time": "72 h", "promastigote count": "9.86e+06 and 9.76e+06"}
{"time": "48 h", "promastigote count": "4.24e+06 and 4.35e+06"}
{"data": "Study 2", "target": "Receptor tyrosine-protein kinase erbB-2 (ERBB2, Homo sapiens, UniProt P04626)", "observed": "enzyme activity", "mode": "inhibitor", "tested at": "0.5 µM", "baseline": "control"}
{"SMILES": "CNc1cc2c(Nc3cccc(Br)c3)ncnc2cn1", "remaining activity [%]": 28.9}
{"SMILES": "COc1cc2c(Nc3ccc(Br)cc3F)ncnc2cc1OCC1CCN(C)CC1", "remaining activity [%]": 72.2}
{"SMILES": "O=C1c2ccccc2-c2nc3nnnn3nc21", "remaining activity [%]": 22.2}
{"SMILES": "CCCCc1c(-c2ccc(O)cc2)[nH]c2nccnc12", "remaining activity [%]": 97.7}
{"SMILES": "FC(F)(F)c1ccc(/C=C/c2nc(COc3ccc(CCCCn4ccnn4)cc3)co2)cc1", "remaining activity [%]": 102}
{"SMILES": "O=Nc1c(-c2c(O)[nH]c3ccccc23)[nH]c2ccccc12", "remaining activity [%]": 97.9}
{"SMILES": "Nc1nc(Nc2ccc(S(N)(=O)=O)cc2)nn1C(=S)Nc1c(F)cccc1F", "remaining activity [%]": 104}
{"SMILES": "CC(C)N(CCC(=O)c1ccc2ccccc2c1)Cc1ccccc1", "remaining activity [%]": 98.7}
{"SMILES": "NC(=O)c1cccc(-c2cc(Nc3ccc(OC(F)(F)F)cc3)ncn2)c1", "remaining activity [%]": 89.5}
{"SMILES": "O=C1NC(=O)/C(=C/c2ccc3c(c2)OC(F)(F)O3)S1", "remaining activity [%]": 102}
{"data": "Study 3", "target": "UBC/CDC34 (Homo sapiens, UniProt P0CG48+P49427)", "method": "TR-FRET", "chain of UniProt P49427 (whole entry, looked up)": "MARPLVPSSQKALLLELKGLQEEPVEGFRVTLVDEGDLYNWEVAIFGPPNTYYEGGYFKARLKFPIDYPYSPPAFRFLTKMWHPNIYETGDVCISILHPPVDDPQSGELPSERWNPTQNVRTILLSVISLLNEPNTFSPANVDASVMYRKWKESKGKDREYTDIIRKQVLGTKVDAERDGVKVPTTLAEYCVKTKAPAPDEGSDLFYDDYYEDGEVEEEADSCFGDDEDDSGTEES"}
{"SMILES": "CCC(=O)NC1(Cc2ccc(-c3cc(Cl)cc(Cl)c3)cc2)CCN(C(=O)COC)CC1", "EC50": "> 100 µM"}
{"SMILES": "COCC(=O)N1CCC(O)(c2ccc(-c3cc(Cl)cc(Cl)c3)cc2)CC1", "EC50": "> 100 µM"}
{"SMILES": "CCOC(=O)C1(Cc2ccc(-c3cc(Cl)cc(Cl)c3)cc2)CCN(C(=O)CN(C)C)CC1", "EC50": "9.6 µM"}
{"SMILES": "COCC(=O)N1CCC(Cc2ccc(-c3cc(Cl)cc(Cl)c3)cc2)(C(N)=O)CC1", "EC50": "> 100 µM"}
{"SMILES": "Cc1nnc(C2(Cc3ccc(-c4cc(Cl)cc(Cl)c4)cc3)CCN(C(=O)COc3ccccc3)CC2)o1", "EC50": "> 100 µM"}
{"SMILES": "COCC(=O)N1CCC(Cc2ccc(-c3cc(Cl)cc(Cl)c3)cc2)(C(=O)NCCO)CC1", "EC50": "> 100 µM"}
{"data": "Single results of other studies"}
{"SMILES": "COc1ccc2c(c1)O[C@@H](c1ccc(OC)c(OC)c1)C[C@H]2NC(=O)C1(c2ccc3c(c2)OC(F)(F)O3)CC1 (single isomer, unassigned)", "target": "AP2-associated protein kinase 1 (AAK1, Homo sapiens, UniProt Q2M2I8)", "method": "KINOMEscan", "tested at": "1 µM", "baseline": "control", "measurement": "remaining binding", "result": "100%"}
{"SMILES": "Cn1c(-c2csc(C3CCN(Cc4nc5ncccc5[nH]4)CC3)n2)nc2ccccc21", "target": "Sigma intracellular receptor 2 (TMEM97, Homo sapiens, UniProt Q5BJF2)", "observed": "binding", "measurement": "Ki", "result": "0.152 µM"}
{"note": "A few entries again (study 3):"}
{"SMILES": "COCC(=O)N1CCC(Cc2ccc(-c3cc(Cl)cc(Cl)c3)cc2)(C(=O)NCCO)CC1", "EC50": "> 100 µM"}
